Measured values pooled from the literature.
Every numbered part comes from another study and shows a few of its results, in no order.
Chain of UniProt Q9UEE5 (whole entry, looked up): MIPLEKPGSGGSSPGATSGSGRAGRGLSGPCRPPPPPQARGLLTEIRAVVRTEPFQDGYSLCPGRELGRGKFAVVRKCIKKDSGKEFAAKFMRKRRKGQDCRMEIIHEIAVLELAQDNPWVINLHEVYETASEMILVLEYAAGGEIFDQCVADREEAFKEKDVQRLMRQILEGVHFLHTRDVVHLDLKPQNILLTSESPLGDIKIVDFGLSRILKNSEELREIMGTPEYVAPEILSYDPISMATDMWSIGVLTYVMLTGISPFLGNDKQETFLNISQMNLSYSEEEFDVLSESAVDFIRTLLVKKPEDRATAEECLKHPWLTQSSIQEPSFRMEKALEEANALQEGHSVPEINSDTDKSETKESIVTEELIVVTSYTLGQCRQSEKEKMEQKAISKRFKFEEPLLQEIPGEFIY
Chain of UniProt P51812 (whole entry, looked up): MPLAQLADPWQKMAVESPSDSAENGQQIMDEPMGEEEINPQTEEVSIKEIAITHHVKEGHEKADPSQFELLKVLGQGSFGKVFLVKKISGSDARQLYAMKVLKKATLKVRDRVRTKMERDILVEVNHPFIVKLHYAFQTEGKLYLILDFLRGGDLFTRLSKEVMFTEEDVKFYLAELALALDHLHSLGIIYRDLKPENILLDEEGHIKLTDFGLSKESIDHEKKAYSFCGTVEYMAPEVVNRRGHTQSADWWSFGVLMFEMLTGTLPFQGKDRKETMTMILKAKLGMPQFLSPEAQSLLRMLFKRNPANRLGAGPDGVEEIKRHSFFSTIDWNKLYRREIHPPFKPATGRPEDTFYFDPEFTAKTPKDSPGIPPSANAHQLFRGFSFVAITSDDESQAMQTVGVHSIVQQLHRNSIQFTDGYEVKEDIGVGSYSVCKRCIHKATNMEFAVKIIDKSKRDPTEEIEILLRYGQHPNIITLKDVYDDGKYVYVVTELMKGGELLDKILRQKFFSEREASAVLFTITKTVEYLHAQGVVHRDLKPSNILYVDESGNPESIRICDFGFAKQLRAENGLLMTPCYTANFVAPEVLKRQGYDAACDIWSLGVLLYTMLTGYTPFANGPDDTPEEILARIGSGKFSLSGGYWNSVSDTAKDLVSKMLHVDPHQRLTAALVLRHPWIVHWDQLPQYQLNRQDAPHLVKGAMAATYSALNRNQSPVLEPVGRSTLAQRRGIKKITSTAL
Chain of UniProt Q05655 (whole entry, looked up): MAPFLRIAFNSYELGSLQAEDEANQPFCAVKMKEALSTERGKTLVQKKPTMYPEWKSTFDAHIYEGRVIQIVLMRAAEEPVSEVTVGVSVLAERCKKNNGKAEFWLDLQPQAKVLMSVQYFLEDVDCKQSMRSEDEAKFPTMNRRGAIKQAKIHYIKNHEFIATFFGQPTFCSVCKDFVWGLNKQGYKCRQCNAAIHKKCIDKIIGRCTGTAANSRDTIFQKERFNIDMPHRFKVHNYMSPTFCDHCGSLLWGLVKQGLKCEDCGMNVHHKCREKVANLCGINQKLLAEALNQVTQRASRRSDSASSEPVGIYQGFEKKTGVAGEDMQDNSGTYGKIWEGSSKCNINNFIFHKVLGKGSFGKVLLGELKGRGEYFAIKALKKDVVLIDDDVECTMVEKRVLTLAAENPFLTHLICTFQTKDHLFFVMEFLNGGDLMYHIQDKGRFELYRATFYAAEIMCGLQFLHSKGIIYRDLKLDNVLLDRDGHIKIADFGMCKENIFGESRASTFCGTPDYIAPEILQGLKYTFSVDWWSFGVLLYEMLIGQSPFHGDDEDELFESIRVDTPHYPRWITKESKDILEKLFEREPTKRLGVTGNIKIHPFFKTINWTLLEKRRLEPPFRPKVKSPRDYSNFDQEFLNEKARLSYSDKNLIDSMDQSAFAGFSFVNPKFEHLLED
Chain of UniProt P21802 (whole entry, looked up): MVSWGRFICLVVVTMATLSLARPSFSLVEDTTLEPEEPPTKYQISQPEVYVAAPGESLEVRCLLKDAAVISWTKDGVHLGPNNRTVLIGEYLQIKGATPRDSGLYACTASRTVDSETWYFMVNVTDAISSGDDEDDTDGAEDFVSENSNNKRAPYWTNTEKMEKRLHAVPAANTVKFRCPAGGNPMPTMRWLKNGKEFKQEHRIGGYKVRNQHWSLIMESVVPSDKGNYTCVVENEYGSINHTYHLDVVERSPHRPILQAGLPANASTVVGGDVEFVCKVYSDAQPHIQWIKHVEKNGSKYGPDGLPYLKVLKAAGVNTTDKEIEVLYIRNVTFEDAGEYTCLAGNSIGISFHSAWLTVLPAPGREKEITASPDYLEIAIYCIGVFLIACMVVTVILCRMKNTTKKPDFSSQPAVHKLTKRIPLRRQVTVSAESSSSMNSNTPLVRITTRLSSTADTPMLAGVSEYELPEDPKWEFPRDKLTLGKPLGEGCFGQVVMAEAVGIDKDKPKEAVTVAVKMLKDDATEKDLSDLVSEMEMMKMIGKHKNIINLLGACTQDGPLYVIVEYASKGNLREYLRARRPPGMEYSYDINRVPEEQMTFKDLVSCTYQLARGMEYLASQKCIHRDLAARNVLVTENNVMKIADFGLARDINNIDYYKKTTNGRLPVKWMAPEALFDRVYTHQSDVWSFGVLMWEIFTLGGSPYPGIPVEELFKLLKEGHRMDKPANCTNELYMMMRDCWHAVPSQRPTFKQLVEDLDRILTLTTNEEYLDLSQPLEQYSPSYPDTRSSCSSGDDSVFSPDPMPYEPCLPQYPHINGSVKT
Chain of UniProt O00750 (whole entry, looked up): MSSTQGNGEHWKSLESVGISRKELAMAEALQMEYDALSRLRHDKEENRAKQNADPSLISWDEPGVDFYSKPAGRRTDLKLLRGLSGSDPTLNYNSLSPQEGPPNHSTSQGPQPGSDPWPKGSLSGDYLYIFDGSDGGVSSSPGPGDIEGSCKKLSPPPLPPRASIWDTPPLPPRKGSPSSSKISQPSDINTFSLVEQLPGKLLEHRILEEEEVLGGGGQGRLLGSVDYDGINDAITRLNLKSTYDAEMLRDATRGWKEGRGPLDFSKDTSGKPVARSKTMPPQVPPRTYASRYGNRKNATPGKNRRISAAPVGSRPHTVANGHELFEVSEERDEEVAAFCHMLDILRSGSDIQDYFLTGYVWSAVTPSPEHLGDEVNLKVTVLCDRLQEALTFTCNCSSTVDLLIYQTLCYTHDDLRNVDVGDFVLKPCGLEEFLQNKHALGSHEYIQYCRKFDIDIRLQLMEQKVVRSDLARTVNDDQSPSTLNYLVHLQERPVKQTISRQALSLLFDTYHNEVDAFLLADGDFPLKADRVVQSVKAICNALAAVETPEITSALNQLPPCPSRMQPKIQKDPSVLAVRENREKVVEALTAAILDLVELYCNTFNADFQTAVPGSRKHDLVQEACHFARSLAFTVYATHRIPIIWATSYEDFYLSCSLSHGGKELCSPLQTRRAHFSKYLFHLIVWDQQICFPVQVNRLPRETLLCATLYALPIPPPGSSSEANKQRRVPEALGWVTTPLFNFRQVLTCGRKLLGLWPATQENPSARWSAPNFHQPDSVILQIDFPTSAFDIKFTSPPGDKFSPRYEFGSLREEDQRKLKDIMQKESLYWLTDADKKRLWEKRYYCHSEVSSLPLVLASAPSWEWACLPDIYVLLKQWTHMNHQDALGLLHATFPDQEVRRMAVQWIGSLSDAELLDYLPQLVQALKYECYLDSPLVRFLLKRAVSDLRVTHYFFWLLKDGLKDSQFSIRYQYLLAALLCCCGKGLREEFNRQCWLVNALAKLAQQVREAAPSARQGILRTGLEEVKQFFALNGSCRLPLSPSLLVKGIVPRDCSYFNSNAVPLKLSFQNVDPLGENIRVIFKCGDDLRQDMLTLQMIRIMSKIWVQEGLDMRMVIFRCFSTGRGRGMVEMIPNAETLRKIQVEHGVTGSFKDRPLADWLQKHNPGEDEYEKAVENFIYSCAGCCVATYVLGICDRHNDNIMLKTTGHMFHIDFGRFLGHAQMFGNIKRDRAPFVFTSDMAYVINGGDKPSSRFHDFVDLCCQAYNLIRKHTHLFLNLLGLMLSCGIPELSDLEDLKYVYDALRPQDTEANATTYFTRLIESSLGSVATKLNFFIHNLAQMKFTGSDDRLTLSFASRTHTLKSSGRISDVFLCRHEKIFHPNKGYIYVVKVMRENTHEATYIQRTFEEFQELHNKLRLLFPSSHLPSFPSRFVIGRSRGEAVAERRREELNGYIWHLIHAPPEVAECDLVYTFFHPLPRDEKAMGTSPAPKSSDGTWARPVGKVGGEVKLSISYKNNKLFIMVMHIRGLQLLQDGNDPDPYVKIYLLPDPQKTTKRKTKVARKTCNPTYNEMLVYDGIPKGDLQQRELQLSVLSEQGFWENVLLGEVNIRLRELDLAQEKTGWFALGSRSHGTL
Chain of UniProt Q9HAZ1 (whole entry, looked up): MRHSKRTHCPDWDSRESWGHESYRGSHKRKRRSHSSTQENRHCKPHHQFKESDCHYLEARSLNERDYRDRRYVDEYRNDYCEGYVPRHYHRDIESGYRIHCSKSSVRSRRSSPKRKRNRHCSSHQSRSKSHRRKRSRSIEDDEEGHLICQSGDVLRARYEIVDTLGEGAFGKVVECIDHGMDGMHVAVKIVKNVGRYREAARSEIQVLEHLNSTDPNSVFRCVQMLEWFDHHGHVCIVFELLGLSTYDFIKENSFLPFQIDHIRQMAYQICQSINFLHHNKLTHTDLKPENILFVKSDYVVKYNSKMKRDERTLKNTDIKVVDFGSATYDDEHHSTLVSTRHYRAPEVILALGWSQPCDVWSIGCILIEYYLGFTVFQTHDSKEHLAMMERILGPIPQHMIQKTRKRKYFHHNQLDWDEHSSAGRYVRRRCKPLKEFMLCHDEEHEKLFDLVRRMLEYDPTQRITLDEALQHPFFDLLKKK

Sample 1
Target: Microphthalmia-associated transcription factor, full length (MITF, Homo sapiens, UniProt O75030-10, residues 1-413)
Method: protein-binding microarray
Form: hairpin DNA
Matrix: in vitro
Tested at: not given
Notes: whole hairpin DNA, median over replicate spots
Baseline: not given
Reading: higher = stronger binding
Measurement: median fluorescence
Sequence = GAGGCCTAGCACGGGCTGCCTCCTGGCAGCCCGTGCTAGGCCTCACACTC; value = 7990 a.u.
Sequence = GAGGCCTAGCACGTGCTGCCTCCTGGCAGCACGTGCTAGGCCTCACACTC (5mC at 30); value = 10600 a.u.
Sequence = GAGGCCTACGACGTGCTGCCTCCTGGCAGCACGTCGTAGGCCTCACACTC (5mC at 35); value = 6590 a.u.
Sequence = CACTTAGCACGAGATTTTGGTCCTCCAAAATCTCGTGCTAAGTGACACTC; value = 14500 a.u.
Sequence = CACTTAGCACGTGATTTTGGTCCTCCAAAATCACGTGCTAAGTGACACTC (5mC at 8); value = 17500 a.u.
Sequence = GAGGCCCGGCACGTGCTGCCTCCTGGCAGCACGTGCCGGGCCTCACACTC; value = 24300 a.u.
Sequence = GAGGCCTAGCACGTCGTGCCTCCTGGCACGACGTGCTAGGCCTCACACTC (5mC at 29); value = 5860 a.u.
Sequence = GAGGCCTAGAACGTGCTGCCTCCTGGCAGCACGTTCTAGGCCTCACACTC; value = 6690 a.u.

Sample 2
Compound: CN1CCN(c2ccc3nc(-c4c(N)c5c(F)cccc5[nH]c4=O)[nH]c3c2)CC1
Read-out: enzyme activity
Mode: inhibitor
Tested at: 0.5 µM
Baseline: control
Measurement: remaining activity
target = PHKG1 (Homo sapiens, UniProt Q16816); value = 30.4%
target = EPHB1 (Homo sapiens, UniProt P54762); value = 58.1%
target = RPS6KA6 (Homo sapiens, UniProt Q9UK32); value = 16.1%
target = STK17A (Homo sapiens, UniProt Q9UEE5); value = 68%

Sample 3
SMILES: CN(C(=O)c1ccccc1)c1cc(N(C)c2ccc3c(c2)CCc2ccc(C(=O)NCCN4CCOCC4)cc2C3=O)ccc1F
Read-out: cell-free assay
Method: competition with immobilised ligand
Tested at: 1 µM
Measurement: remaining binding
target = NTRK2 (Homo sapiens, UniProt Q16620); value = 100%
target = PRKCD (Homo sapiens, UniProt Q05655); value = 87%
target = PIK3CA (Homo sapiens, UniProt P42336, H1047Y); value = 100%
target = Tyrosine-protein kinase ABL1, non-phosphorylated (ABL1, Homo sapiens, UniProt P00519, H396P); value = 92%
target = Ribosomal protein S6 kinase alpha-3, N-terminal kinase domain (RPS6KA3, Homo sapiens, UniProt P51812); value = 95%
target = PIK3C2B (Homo sapiens, UniProt O00750); value = 91%
target = DDR1 (Homo sapiens, UniProt Q08345); value = 96%
target = FGFR2 (Homo sapiens, UniProt P21802); value = 99%
target = CIT (Homo sapiens, UniProt O14578); value = 70%
target = MAP3K14 (Homo sapiens, UniProt Q99558); value = 79%
target = CLK4 (Homo sapiens, UniProt Q9HAZ1); value = 95%
target = ERBB3 (Homo sapiens, UniProt P21860); value = 100%
target = Tyrosine-protein kinase ABL1, phosphorylated (ABL1, Homo sapiens, UniProt P00519, Q252H); value = 100%

Mixed results
Structure (SMILES) = CC(C)(C)c1cnc(CSc2cnc(NC(=O)C3CCN(CCCCSc4cccc5c4C(=O)N(C4CCC(=O)NC4=O)C5=O)CC3)s2)o1 (centres unmarked); cell line = HH; assay = CCK-8; conditions = 500 nM; measurement = viability; value = 0%

Repeated from above (sample 1):
Sequence = GAGGCCTAGCACGTCGTGCCTCCTGGCACGACGTGCTAGGCCTCACACTC (5mC at 29); value = 5860 a.u.
